Measured values pooled from the literature.
Every numbered part comes from another study and shows a few of its results, in no order. Values joined by “and” are separate records of one study, mostly repeats; a detail may differ.

Set 1
Target: Bromodomain-containing protein 4, BD1 (BRD4, Homo sapiens, UniProt O60885)
Read-out: acetyl-histone H4 peptide binding
Technique: AlphaScreen displacement
Concentration: 50 µM
The inhibition of `CC(Nc1nccnc1-c1ccccc1Cl)c1ccccc1` (stereo not drawn) is reported as 20.9%.
`COc1cccc(NC(=O)CSc2ccc3nnc(-c4ccc(Cl)cc4)n3n2)c1` has an inhibition of 10%.
For `Cc1c(-c2ccccc2)sc2nc[nH]c(=O)c12`, the inhibition was 7.8%.
For `Cl.NCCNS(=O)(=O)c1cccc2c(Cl)cccc12`, the inhibition was 16.6%.
`c1coc(-c2nnc(CSc3nnc(NC4CC4)s3)o2)c1` has an inhibition of 11.7%.
With `O=c1[nH]cnc2scc(-c3ccc(F)cc3)c12` the inhibition was -1.85%.
With `CC(C)OC(=O)CNC(=O)c1cc2c(=O)n3ccccc3nc2n1C` the inhibition was 6.15%.
`Cc1ccnc(Nc2nc(-c3sc(N)nc3C)cs2)c1` gave an inhibition of 88.8%.

Set 2
Cell line: HaCaT
Concentration: 100 µM
Time: 18 h
`NCc1ccc(S(N)(=O)=O)cc1` has a viability of 107%.
With `CCn1cc(C(=O)O)c(=O)c2cc(F)c(N3CCNC(C)C3)c(F)c21` (stereo not drawn) the viability was 107%.
With `COc1ccc(-c2coc3cc(O)ccc3c2=O)cc1` the viability was 84.9%.
With `N=C(N)c1ccc2cc(OC(=O)c3ccc(N=C(N)N)cc3)ccc2c1` the viability was 118%.
For `CS(=O)(=O)c1ccc(C(=O)Nc2ccc(Cl)c(-c3ccccn3)c2)c(Cl)c1`, the viability was 73.4%.
The viability of `O=C(O)[C@@H](S)[C@@H](S)C(=O)O` is reported as 108%.
`Nc1c2ccccc2nc2ccccc12` gave a viability of 23.7%.
For `COc1ccc2cc1Oc1ccc(cc1)C[C@H]1c3c(cc4c(c3Oc3cc5c(cc3OC)CCN(C)[C@@H]5C2)OCO4)CCN1C`, the viability was 21.4%.

Mixed results
`CC(C)n1cnc(-c2ccc(F)cc2)c1-c1ncc(C(=O)Nc2ccc(N3CCN(C)CC3)cc2)[nH]1`: “patients with LDH increased TEAE” 0% (phase 2a clinical trial; patients with idiopathic pulmonary fibrosis; 30 mg once daily).
`CC[C@@H](C)c1nc2cc(Nc3ccnc4ccc(S(=O)(=O)C(C)C)cc34)ccc2s1.Cl` has a viability of 94.9% and 93.3% and 69.7% and 93.4% and 97% (L929 RIPK3 knockout; 25 µM, added: zVAD).
